Results collected from several papers.
A part holds a random share of what one study measured.

Study 1
Compound: CCN1/C(=C/C=C2\CCCC(/C=C/C3=[N+](CC)c4ccccc4C3(C)C)=C2NCCCCCCCCN2CCC(Nc3nc4ccccc4n3Cc3ccc(F)cc3)CC2)C(C)(C)c2ccccc21
Cell line: U-87 MG
Concentration: concentration not given
Relative to: DMSO
assay | log2 fold change
measured: ACAT2 mRNA | -1.01
measured: SHTN1 mRNA | -0.806
measured: H2BC21 mRNA | 1.65
measured: DCBLD2 mRNA | -0.989
measured: TCEA1 mRNA | 0.922
measured: BLOC1S1 mRNA | -1.02
measured: ERFE mRNA | -0.982
measured: ALDH1L2 mRNA | 1.02
measured: SAT1 mRNA | 2
measured: PRRX1 mRNA | 1.11
measured: CLCF1 mRNA | -1.47
measured: TMEM182 mRNA | 0.866
measured: TRIT1 mRNA | 0.83
measured: ARPIN mRNA | -0.971
measured: ZNF222 mRNA | 1.13
measured: INHBA mRNA | 1.93

Study 2
Organism: Arabidopsis thaliana
Effect on: root length
Strain: Col-0
Sample: seedlings
Concentration: 3.125 µg/mL
SMILES | inhibition [%]
COc1ccc2c(c1)OC(O)(C(=O)O)C(=O)N2Cc1ccccc1 (stereo not shown) | 6.89
CN1C(=O)C(O)(C(=O)O)Oc2cc(F)ccc21 (stereo not shown) | 7.57
CC(C)=CCN1C(=O)C(O)(C(=O)O)Oc2cc(F)ccc21 (stereo not shown) | 10.7
CCCN1C(=O)C(O)(C(=O)O)Oc2cc(F)ccc21 (stereo not shown) | 9.42
Cc1ccc2c(c1)OC(O)(C(=O)O)C(=O)N2Cc1ccccc1 (stereo not shown) | 10.2
O=C(O)C1(O)Oc2cc(Br)ccc2N(Cc2ccccc2)C1=O (stereo not shown) | 10.6
O=C(O)C1Oc2cc(F)ccc2N(Cc2ccccc2)C1=O (stereo not shown) | 5.21
CCN1C(=O)C(O)(C(=O)O)Oc2cc(F)ccc21 (stereo not shown) | 10.8
O=C(O)C1(O)Oc2ccccc2N(Cc2ccccc2)C1=O (stereo not shown) | 6.2
O=C(O)C1(O)Oc2cc(Cl)ccc2N(Cc2ccccc2)C1=O (stereo not shown) | 6.05
CC(C)(C)c1ccc(Oc2ccc3c(c2)OC(O)(C(=O)O)C(=O)N3Cc2ccccc2)cc1 (stereo not shown) | 7.74

Study 3
Compound: Cc1ccc(O)c(C)c1-c1cnc2[nH]c(-c3cnc(N4CCC(CN5CCN(c6ccc(NC7CCC(=O)NC7=O)cc6F)CC5)CC4)nc3)cc2c1C#N (stereo not shown)
Target: Membrane-associated tyrosine- and threonine-specific cdc2-inhibitory kinase (PKMYT1, Homo sapiens, UniProt Q99640)
Sequence of UniProt Q99640 (whole entry, looked up): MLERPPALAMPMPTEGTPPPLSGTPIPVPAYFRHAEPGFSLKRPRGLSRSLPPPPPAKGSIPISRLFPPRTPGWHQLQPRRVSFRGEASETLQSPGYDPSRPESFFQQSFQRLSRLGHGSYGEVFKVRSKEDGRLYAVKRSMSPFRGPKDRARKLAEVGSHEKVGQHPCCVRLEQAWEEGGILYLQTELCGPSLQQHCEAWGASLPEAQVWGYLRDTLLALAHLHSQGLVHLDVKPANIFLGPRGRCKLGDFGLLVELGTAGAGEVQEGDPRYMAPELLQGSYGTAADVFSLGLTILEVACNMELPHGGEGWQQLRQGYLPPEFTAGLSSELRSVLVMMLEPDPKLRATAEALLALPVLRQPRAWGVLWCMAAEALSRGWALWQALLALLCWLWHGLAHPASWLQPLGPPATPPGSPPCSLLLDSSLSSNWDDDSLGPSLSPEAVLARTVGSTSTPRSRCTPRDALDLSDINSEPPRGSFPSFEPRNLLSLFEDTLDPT
assay | setting | inhibition
cell-free assay, inhibitor, TR-FRET | 4.12 nM | 45.9%
cell-free assay, inhibitor, TR-FRET | 1.37 nM | 17.2%
 | 0.00046 µM | 2.83%
cell-free assay, inhibitor, TR-FRET | 152 pM | -5.48%
 | 5.1e-05 µM | 0.608%
 | 1 µM | 101%
cell-free assay, inhibitor, TR-FRET | 1 µM | 97.5%
 | 0.00137 µM | 16%
 | 0.00412 µM | 44.7%
cell-free assay, inhibitor, TR-FRET | 37.04 nM | 88%
cell-free assay, inhibitor, TR-FRET | 12.35 nM | 72.3%

Study 4
Structure (SMILES): C[C@@H]1CN(c2ccc(-c3cc(C(=O)NCCOCCOCCOCCOCCNC(=O)Cn4cc(-c5[nH]cc(C(=O)N[C@@H](CC(N)=O)c6ccc(F)c(Cl)c6)c5-c5ccc(Cl)cc5F)cn4)ccc3F)cc2NC(=O)c2c[nH]c(=O)cc2C(F)(F)F)C[C@H](C)N1C
Effect on: thermal unfolding
Technique: differential scanning fluorimetry
Concentration: 5.5 µM
Direction: higher = more unfolded
WDR5: WD repeat-containing protein 5 (WDR5, Homo sapiens, UniProt P61964)
DCAF1: DDB1- and CUL4-associated factor 1 (DCAF1, Homo sapiens, UniProt Q9Y4B6)
Sequence of UniProt Q9Y4B6 (whole entry, looked up): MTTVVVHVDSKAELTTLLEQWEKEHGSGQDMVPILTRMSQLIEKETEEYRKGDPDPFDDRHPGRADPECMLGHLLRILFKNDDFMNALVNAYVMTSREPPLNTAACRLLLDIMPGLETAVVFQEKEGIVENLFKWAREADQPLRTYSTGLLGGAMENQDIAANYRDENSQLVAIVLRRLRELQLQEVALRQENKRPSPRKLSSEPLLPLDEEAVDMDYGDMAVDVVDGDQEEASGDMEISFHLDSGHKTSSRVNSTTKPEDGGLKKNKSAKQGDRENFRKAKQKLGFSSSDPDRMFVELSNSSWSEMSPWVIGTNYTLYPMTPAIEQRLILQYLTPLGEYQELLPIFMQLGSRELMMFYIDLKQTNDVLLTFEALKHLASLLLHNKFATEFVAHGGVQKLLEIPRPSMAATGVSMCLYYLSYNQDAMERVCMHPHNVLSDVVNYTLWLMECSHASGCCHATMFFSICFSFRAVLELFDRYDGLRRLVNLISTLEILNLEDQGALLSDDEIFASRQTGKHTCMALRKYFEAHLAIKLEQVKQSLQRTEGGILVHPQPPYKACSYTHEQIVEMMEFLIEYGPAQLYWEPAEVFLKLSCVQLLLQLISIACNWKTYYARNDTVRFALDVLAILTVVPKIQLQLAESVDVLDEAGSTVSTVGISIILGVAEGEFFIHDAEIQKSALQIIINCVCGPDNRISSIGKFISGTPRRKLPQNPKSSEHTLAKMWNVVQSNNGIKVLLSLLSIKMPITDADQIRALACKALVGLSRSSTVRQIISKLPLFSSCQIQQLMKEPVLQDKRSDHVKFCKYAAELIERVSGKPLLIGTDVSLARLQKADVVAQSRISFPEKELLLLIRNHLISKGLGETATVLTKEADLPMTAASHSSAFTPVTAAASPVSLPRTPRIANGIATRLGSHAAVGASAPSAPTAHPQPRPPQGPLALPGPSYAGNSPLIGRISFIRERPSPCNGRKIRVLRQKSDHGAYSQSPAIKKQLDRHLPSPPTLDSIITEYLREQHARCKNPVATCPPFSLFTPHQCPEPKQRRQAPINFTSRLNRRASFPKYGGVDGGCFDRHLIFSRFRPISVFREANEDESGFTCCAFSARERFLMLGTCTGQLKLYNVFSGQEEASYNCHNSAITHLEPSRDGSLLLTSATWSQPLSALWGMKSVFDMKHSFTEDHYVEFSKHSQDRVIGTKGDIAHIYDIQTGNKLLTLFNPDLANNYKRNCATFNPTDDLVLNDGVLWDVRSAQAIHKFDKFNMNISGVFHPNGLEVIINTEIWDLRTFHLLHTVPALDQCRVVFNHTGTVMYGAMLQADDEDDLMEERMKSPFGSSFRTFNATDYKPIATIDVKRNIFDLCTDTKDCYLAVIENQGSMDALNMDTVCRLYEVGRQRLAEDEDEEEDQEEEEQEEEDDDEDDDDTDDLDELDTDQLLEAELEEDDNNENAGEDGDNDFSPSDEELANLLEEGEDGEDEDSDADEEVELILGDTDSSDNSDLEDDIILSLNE
target | setting | SYPRO Orange fluorescence [a.u.]
WDR5 | 87.41 °C | 43300
WDR5 | 92.41 °C | 41000
WDR5 | 51.8 °C | 14400
DCAF1 | 66.81 °C | 56800
DCAF1 | 25.8 °C | 7550
WDR5 | 90.21 °C | 43000
DCAF1 | 63.01 °C | 51500
DCAF1 | 38.4 °C | 9760
DCAF1 | 75.41 °C | 48900
DCAF1 | 90.41 °C | 34700
WDR5 | 49.8 °C | 14500

For quick reference, copied from above (study 3):
assay | setting | inhibition
cell-free assay, inhibitor, TR-FRET | 1.37 nM | 17.2%
 | 0.00046 µM | 2.83%
cell-free assay, inhibitor, TR-FRET | 152 pM | -5.48%
 | 5.1e-05 µM | 0.608%
